Experimental data collected from several papers.
Compare with care: the assays were run in different laboratories. ± gives the spread as reported. Converted amounts (≈) assume the structure as drawn.

SMILES | target or system | assay | system | setting | scale | quantity | result
O=S(=O)(NCc1ccncc1)c1ccc(C2CCCCC2)cc1 |  | immunohistochemistry | CK-p25 mice female, hippocampal pyramidal layer | ip, 0.3 mg/kg daily, 6 wk | baseline: vehicle | tubulin β3 staining | ~1.9 fold
Cn1ncc2cc(-c3cncc(Cl)c3N3CCC4(CCNC4=O)CC3)ccc21 | LS174T | gene expression, microarray, item: PFKFB4 mRNA |  | concentration not given, 4 h | baseline: untreated cells | log2 fold change | 1.15
CN1CCCNC(=O)c2cccc(c2)C(=O)NCCCN(C)CCCNc2cccc3c2C(=O)c2cccc(c2C3=O)NCCC1 | SAS | RNA-Seq, item: TLK1 mRNA |  | 1 µM, 6 h | baseline: untreated cells | log2 fold change | -0.972
Cc1ccncc1.[Cl-].[Cl-].[Ru+2].c1cc(-c2ccc3cccnc3n2)nc(-c2ccc3cccnc3n2)c1.c1ccc2cc3nc4c5cccnc5c5ncccc5c4nc3cc2c1 | B16-F10 | resazurin |  | together with: light 633 nm, 20 mW, 100 J/cm2 |  | EC50 | 1970 ± 90 nM
N=C(N)NCCC[C@@H]1NC(=O)[C@H](CCCNC(=N)N)NC(=O)[C@@H](C(c2ccccc2)c2ccccc2)NC(=O)[C@H](Cc2c[nH]c3ccccc23)NC(=O)[C@@H](C(c2ccccc2)c2ccccc2)NC(=O)[C@@H](CCCNC(=N)N)NC(=O)[C@@H](CCCNC(=N)N)NC1=O | Aspergillus fumigatus | XTT | Af 293 | MIC, 24 h, pre-formed biofilm |  | biofilm reduction | 35 to 38%
COC1CN([C@H]2CC[C@H]([C@@]3(C)Oc4c(Cl)cc(C(=O)NCc5c(SC)cc(C)[nH]c5=O)c(C)c4O3)CC2)C1 |  | RNA-seq, item: FRMD6 mouse homolog | mouse, HT-1376 xenograft, whole blood | dose not given | baseline: vehicle | log2 fold change | 0.241
CC(=O)[O-].O.O.O.O.[Mn+2].[O-]c1ccc(Br)cc1C=NCCN1CCOCC1 |  | FRAP |  | 160 µM |  | ferric reducing power | 31.6%
C[n+]1ccc(/C=N/NC(=O)c2cc(C(=O)N/N=C/c3cc[n+](C)cc3)ncn2)cc1 | telomeric G4 DNA hybrid-2 | FRET melting |  | 1 µM, DNA 0.2 µM, together with: duplex DNA competitor 10 µM |  | ΔTm | 1.3 ± 0.2 °C
CNS(=O)(=O)Nc1nccc(Cc2c(C)c3ccc(Oc4ncccc4F)cc3oc2=O)c1F | Hs766T | cell viability |  | 7 days |  | IC50 | 0.664 nM
C=CC(=O)Nc1cccc(Cn2ncc3cnc(Nc4cnn(CCOC)c4)nc32)c1 | BRSK2 human | binding, KINOMEscan |  | 100 nM | lower = stronger binding | percent of control | 100%
O=C(N/N=C/c1cc[n+](CC2CC2)c2ccccc12)c1cc(C(=O)N/N=C/c2cc[n+](CC3CC3)c3ccccc23)ncn1 | telomeric G4 DNA hybrid-2 | FRET melting |  | 1 µM, DNA 0.2 µM |  | ΔTm | 8.9 ± 1 °C
C=CC(=O)N1[C@@H](c2ccc3c(c2)OCO3)c2[nH]c3ccccc3c2C[C@H]1C(=O)N1CCN(C)CC1 | human cyclin E1 wild type-3xFLAG:CDK2 | co-IP with TMT proteomics, item: DDX5 |  | concentration not given, P17844 | baseline: wild type DMSO | relative co-enrichment | 100%
C[n+]1ccc(/C=N/NC(=O)c2ccc3ccc(C(=O)N/N=C/c4cc[n+](C)cc4)nc3n2)cc1 | telomeric G4 DNA hybrid-2 | FRET melting |  | 1 µM, DNA 0.2 µM, together with: duplex DNA competitor 10 µM |  | ΔTm | 8.8 ± 0.4 °C
Nc1ncc(-c2cc(-c3cnn(CC(F)(F)F)c3)ncc2F)nc1C(=O)NC1CNCC(F)C1 (stereo not shown) | MEK5 | KINOMEscan |  | 1 µM | baseline: DMSO control | remaining binding | 15%
O=C(N/N=C/c1ccc2c(ccc[n+]2Cc2ccccc2)c1)c1cccc(C(=O)N/N=C/c2ccc3c(ccc[n+]3Cc3ccccc3)c2)c1 | telomeric G4 DNA hybrid-2 | FRET melting |  | 1 µM, DNA 0.2 µM |  | ΔTm | 16.3 ± 0.7 °C
C=C(NC(=O)c1csc(-c2nc3c(cc2O)-c2nc(cs2)C(=O)NC(C(C)O)C(=O)NC(=C(C)OC)c2nc(cs2)C(=O)NC2c4nc(cs4)C(=O)NC(COC(=O)c4c5c6c(cccc6n4O)COC(=O)C(OC4CC(C)(O)C(N(C)C)C(C)O4)C2OC5)c2nc-3cs2)n1)C(N)=O (stereo not shown) | Enterococcus faecalis | microbial growth, broth dilution |  | clinical isolate |  | MIC90 | 0.0625 µg/mL (≈ 0.0435 µM)
O=C(N/N=C/c1ccc2c(ccc[n+]2Cc2ccccc2)c1)c1cncc(C(=O)N/N=C/c2ccc3c(ccc[n+]3Cc3ccccc3)c2)n1 | telomeric G4 DNA hybrid-2 | FRET melting |  | 1 µM, DNA 0.2 µM |  | ΔTm | 23.1 ± 0.4 °C
CC(C)(C)c1cc(-c2ccc3cccnc3n2)nc(-c2ccc3cccnc3n2)c1.COc1ccncc1.[Cl-].[Cl-].[Ru+2].c1ccc2cc3nc4c5cccnc5c5ncccc5c4nc3cc2c1 | B16-F10 |  |  | light 633 nm | baseline: dark EC50 over light EC50 | phototherapeutic index | 24
C[n+]1cc(/C=N/NC(=O)c2cncc(C(=O)N/N=C/c3cc4ccccc4[n+](C)c3)n2)cc2ccccc21 | telomeric G4 DNA hybrid-2 | FRET melting |  | 1 µM, DNA 0.2 µM, together with: duplex DNA competitor 10 µM |  | ΔTm | 14.9 ± 0.8 °C
COc1cc(O)ccc1CCC(c1ccc(O)cc1)c1cc2c(c(C)c1O)OC(c1ccc(O)cc1)CC2 (mixture of isomers) |  |  | human blood | 10 µM, together with: A23187 |  | LTB4 level | 675 ± 346 pg/mL
Cc1ncsc1-c1ccc(C(C)NC(=O)C2CC(O)CN2C(=O)C(NC(=O)CCCCCCCCCCN2CCCC(Nc3ncc(Cl)c(Nc4ccccc4S(=O)(=O)C(C)C)n3)C2)C(C)(C)C)cc1 (stereo not shown) | 22Rv1 | RNA-seq, item: SV2C mRNA |  | concentration not given | baseline: DMSO | log2 fold change | -1.64
C[n+]1cc(/C=N/NC(=O)N/N=C/c2cc3ccccc3[n+](C)c2)cc2ccccc21 | telomeric G4 DNA hybrid-2 | FRET melting |  | 1 µM, DNA 0.2 µM |  | ΔTm | 7.5 ± 0.2 °C

A few entries again:
SMILES | target or system | assay | system | setting | scale | quantity | result
O=C(N/N=C/c1cc[n+](CC2CC2)c2ccccc12)c1cc(C(=O)N/N=C/c2cc[n+](CC3CC3)c3ccccc23)ncn1 | telomeric G4 DNA hybrid-2 | FRET melting |  | 1 µM, DNA 0.2 µM |  | ΔTm | 8.9 ± 1 °C
